Published values collected from several papers.
Each numbered part is a random draw from the data of one study; scales do not carry over between parts.

Block 1 — technique: protein-binding microarray; molecule type: double-stranded DNA, one strand shown; matrix: in vitro; tested at: 250 nM; setting: 60-bp whole probe; added: salmon DNA 0.4 mg/ml; relative to: random background probes; reading: higher = stronger binding; endpoint: log fluorescence; all sequences stand within: GCCTAGCAC … GTCTTGATTCGCTTGACGCTGCTG
Target: Interferon regulatory factor 7, full length, phosphomimetic (IRF7, Homo sapiens, UniProt Q92985, residues 1-503, S101K/S471D/S472D/S475D/S476D/S477D/S483D/S484D/S487D)
Chain of UniProt Q92985 (whole entry, unmodified, looked up): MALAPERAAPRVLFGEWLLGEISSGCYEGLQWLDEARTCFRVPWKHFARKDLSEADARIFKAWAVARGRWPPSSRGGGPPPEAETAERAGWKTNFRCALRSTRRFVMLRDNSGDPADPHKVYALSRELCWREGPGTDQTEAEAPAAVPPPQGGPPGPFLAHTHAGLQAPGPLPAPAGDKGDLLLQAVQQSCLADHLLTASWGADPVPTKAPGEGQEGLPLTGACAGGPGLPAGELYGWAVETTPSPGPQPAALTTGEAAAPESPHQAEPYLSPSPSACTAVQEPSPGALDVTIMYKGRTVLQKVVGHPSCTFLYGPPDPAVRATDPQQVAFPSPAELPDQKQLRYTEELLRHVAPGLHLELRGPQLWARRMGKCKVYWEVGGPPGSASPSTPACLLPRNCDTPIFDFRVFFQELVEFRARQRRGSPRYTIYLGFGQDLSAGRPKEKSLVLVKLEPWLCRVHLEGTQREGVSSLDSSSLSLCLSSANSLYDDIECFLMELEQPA
TTAGGACCGCTTATCCTTTAGTGCTAG: 0.93 z-score
TTTCCTTTATGTCCTGTCTAGTGCTAG: 2.22 z-score
TCATGCTTGTGTCTGGGACTGTGCTAG: -0.664 z-score
TTAGATTCTAGTTTCGATTAGTGCTAG: 11.2 z-score
TACGGTATCCTTATCCTGACGTGCTAG: 0.514 z-score
TTAGCACTGGGTTTCGGTTAGTGCTAG: 6.7 z-score
CTCTCATTCCAATTCTTTTTGTGCTAG: 0.968 z-score
GACGATCTCATTCTCGAGACGTGCTAG: 0.456 z-score
GACGGTCCCGGTTTCGGGACGTGCTAG: 4.85 z-score
GACAGTTTCCTTTTCCTGACGTGCTAG: 6.9 z-score
TTAGGACTGGGGTATCGGTGAGTGCTA: -0.462 z-score
GATGATCTCAGTATCGAGACGTGCTAG: -0.0301 z-score
TTAGATCTCGGTCTCGATTAGTGCTAG: 1.58 z-score
GTCGATATCAGTATCGAGACGTGCTAG: 0.523 z-score
GACGACTTCGGGTTTCGAGACGTGCTA: 2.27 z-score
TTGAACTTCGGCCTCTAGGTGTGCTAG: -0.711 z-score
TTAGAATTGGGGACTGGATTAGTGCTA: -0.342 z-score
GACGGACGGGGTCTCGGGACGTGCTAG: -0.489 z-score
TCATGTCTGGGTATTTTACTGTGCTAG: -0.852 z-score
TTGGGTTTCCTTCTCCTTTAGTGCTAG: 1.71 z-score
TTAGATATCAGTATCGAGTAGTGCTAG: 0.289 z-score
TATGTTCACTATTTAAGAACGTGCTAG: 1.53 z-score
TTAGGTATCGGTTCCGGTTAGTGCTAG: 3.96 z-score
TTAGGACTACTTTTCCTTTAGTGCTAG: 1.3 z-score
TTAGGTATCGGGAATGGGTTAGTGCTA: 0.194 z-score

Block 2 — technique: universal PBM; molecule type: double-stranded DNA, one strand shown; matrix: in vitro; tested at: not given; reading: higher = stronger binding; endpoint: E-score
Target: Sal-like protein 4, full length isoform B (SALL4, Homo sapiens, UniProt Q9UJQ4-2, residues 1-616)
Setting: 8-mer, flanks averaged, mean of replicates
AACAGTCA: -0.0108
AATTCGGA: 0.0386
AGTCGGAT: 0.0401
AGTACTAA: 0.227
AAAATCGC: 0.113
ACAGCTAT: 0.124
AGCGCGAG: -0.226
AGCGCCGC: -0.316
AGCCAACA: -0.0645
ACGACGGG: -0.107
ACCACGTG: -0.275
GCACTTCC: -0.189
TCCGACGA: 0.0437
CACGGTGC: -0.282
ACCGCCGC: -0.271
ATAGACCC: 0.105
CGTATCAG: -0.109
AAGTTCAA: 0.173
CGTTGGCC: -0.264
CAGTCGCA: -0.187
AGGCAAGG: -0.148
CTGAACTA: -0.0563
AGAACGAT: 0.0512
CGCCATGC: -0.141
CCTGAAGA: -0.144

Block 3 — technique: aptamer microarray, sandwich; molecule type: DNA with 2'F-ANA; matrix: in vitro; tested at: 200 nM; added: Cy3 exosite-II aptamer, 400 nM; reading: higher = stronger binding; endpoint: mean fluorescence intensity; oligonucleotide: GGTTGGTGTGGTTGG
Target: Prothrombin, mature alpha-thrombin (F2, Homo sapiens, UniProt P00734)
Setting: whole 15-mer aptamer, many near background
2'F-ANA at 1 4 5 6 7 8 11 14 15: 109 a.u.
2'F-ANA at 7 8 10 11 12 13: 190 a.u.
2'F-ANA at 4 5 6 7 8 10 15: 97.5 a.u.
2'F-ANA at 1 3 4 5 7 11 12 13: 89.4 a.u.
2'F-ANA at 2 4 6 8 10 11 12 14 15: 63.2 a.u.
2'F-ANA at 1 2 3 5 8 13 14 15: 48.5 a.u.
2'F-ANA at 2 3 4 7 9 10 11 12 14: 175 a.u.
2'F-ANA at 5 6 7 9 12 15: 140 a.u.
2'F-ANA at 2 3 4 7 9 10 12 13: 268 a.u.
2'F-ANA at 4 7 8 9 10 14 15: 60.7 a.u.
2'F-ANA at 1 4 5 8 11 12 13 14: 50.8 a.u.
2'F-ANA at 1 4 5 6 8 9 11 12 14 15: 82.9 a.u.
2'F-ANA at 1 2 3 6 10 12 14: 55.3 a.u.
2'F-ANA at 2 4 5 6 7 11 14: 46.9 a.u.
2'F-ANA at 1 2 3 4 5 6 8 9 14 15: 48.5 a.u.
2'F-ANA at 1 2 4 5 7 10 11 13 14: 51 a.u.
2'F-ANA at 1 9 10 12 14 15: 47.3 a.u.
2'F-ANA at 2 7 8 10 12: 209 a.u.
2'F-ANA at 2 6 7 8 9 12 14: 179 a.u.
2'F-ANA at 3 4 5 7 9 11 13 15: 60.9 a.u.
2'F-ANA at 2 3 4 6 7 8 12 13: 637 a.u.
2'F-ANA at 2 4 15: 359 a.u.
2'F-ANA at 3 4 5 8 9 10 12 13: 50.2 a.u.
2'F-ANA at 3 4 8 11 14: 356 a.u.
2'F-ANA at 2 7 10 12 13 15: 182 a.u.

Block 4 — technique: RNA Bind-n-Seq; molecule type: RNA; matrix: in vitro; tested at: 365 nM; relative to: no-protein control; reading: higher = stronger binding; endpoint: RBNS enrichment (R)
Target: RNA binding protein fox-1 homolog 2, RRM domain, GST-SBP tag (RBFOX2, Homo sapiens, UniProt O43251-10, residues 100-194)
Setting: natural RNA segment, single round, ends assumed
Target sequence (chain): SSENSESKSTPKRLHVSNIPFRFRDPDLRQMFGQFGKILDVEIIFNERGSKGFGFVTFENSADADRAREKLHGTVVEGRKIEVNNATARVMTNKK
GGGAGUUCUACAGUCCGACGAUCGUCCUCCUGCCUGCCUGAAGGUCUCCCAUGAAAACACUGCUGAACUGUGUUGACACUCAUGACCCUUUUUUUAAACCGUUAAAGGGAAGUUCGGUGUUGGAGCGAUACUCUGGAAUUCUCGGGUGCCAA: 0.847
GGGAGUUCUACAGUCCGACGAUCGGUGCUGCUGUCACCCAGCUAUCUCUCCUUCCUCUAUGAUCUUUGUUUUCUGCCUUCCCACCUUCUCCCCCAGUGUUCGGAUGAAUGUUCCUGGCUGUCUCUGUUCCCUUUGGAAUUCUCGGGUGCCAA: 1.6
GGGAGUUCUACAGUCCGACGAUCGUAGGUGACUUGUUUACACAGCUUUUUUCGACCCACAAACUUUUUUCAUUUGGAAAGGGUGUAAGAAAAGUCGGACGUGUGUGUGCCUGGCUCUUCGUCCCCAGUCUCCCUGGAAUUCUCGGGUGCCAA: 0.277
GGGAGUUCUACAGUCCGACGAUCUCAUAAAUACAUAACAACCCUCAAAAGUAUAUAGGUACUUUGUCUGAGAAACAUUGAAAGCAGGUUAAAUGUUUUGUAACUUUGAAAUACAAAGUCUAAUGCAUAAGCAGUGGAAUUCUCGGGUGCCAA: 0.594
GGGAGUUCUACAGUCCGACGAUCGAGGACAUGACUCCAAGGUGCUGGGAGAUGCACCAGUCUUGCGCAGCAGCACCUGUGGUCUGGCCUCUGCCUUGCCCUCAUGCAGCCAUGAGCUGCCUUAAGGGGAAGAGUGGAAUUCUCGGGUGCCAA: 1.9
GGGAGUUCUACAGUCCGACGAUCCCAGUGUCAUCUCUGCACUUCAGGAAUUGUCAACAACUGAGGUGGCCCUUGUCAGCACUUCUUUUUUUAUACCUCCUCUCAAGGCCACGUAAGUUACCUAGCUCUACCUGUGGAAUUCUCGGGUGCCAA: 0.47
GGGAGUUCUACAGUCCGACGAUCGUAAGCUAUAGCAUAUGUUUUUUAAGACUUAAGCAUUUCAUGCUUUAAAAUACCUUCACAAGUGAACAUUACACACAGAAGUUCAUUUGGUUUUCCUUUGUUUUAUGGUGUGGAAUUCUCGGGUGCCAA: 0.395
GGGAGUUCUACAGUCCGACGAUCCAGAGGAAAAACAAAAACAUCCCUGAAAAUAUACACACUCAUACACACACACGCACAGGGGAAUAAAAUAAGAAAAUCAUUUUCCUCACCAUAGACUUGAUCCCAUCCUUUGGAAUUCUCGGGUGCCAA: 1.21
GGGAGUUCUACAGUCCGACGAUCGCCGCCUACCCCGCCCGCCACGCCGCCGUCGAUGCCAGCGCUGUCCCCACGGGUACCAGGAAGUGCAGAGCCGCACAGGAGCUGCCCCGGAGCUGAGGGGACGGUCUUCGUGGAAUUCUCGGGUGCCAA: 0.23
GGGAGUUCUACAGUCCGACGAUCCCUCCGAAUGCUAUUUGCUCCCAGGCCAGCACUGCACUGUCUGGAGGGGGCAGAGACCACAGGAGAGGUUCUUGCCUGCAUCCUCCCAUGAGGGUGUGGCCAGUUCCCUGUGGAAUUCUCGGGUGCCAA: 0.574
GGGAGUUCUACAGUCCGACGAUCACUCAGGUCCUCUGGAAUAUUCUCUGCACUCUGUCCAUCUUCUGCUGCAGCUCUGCAUGCAAUUUAGUGGAAAAGAAGAGGAAGUCCAGACUUGAGUUGCCUGGCUACAUUGGAAUUCUCGGGUGCCAA: 0.36
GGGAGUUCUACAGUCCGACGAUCCCAAACCUUGGCCUUUCUGCAAGGGCAGCAUAUGGAAACAUCAACUCUGAGAACAAAAUACUACCUCACUCUUUACGUACGUGGUGACUGUACGCACAGUCUGUGCUGCAUGGAAUUCUCGGGUGCCAA: 1.57

Repeated from above (block 3):
2'F-ANA at 1 2 3 6 10 12 14: 55.3 a.u.
2'F-ANA at 2 4 5 6 7 11 14: 46.9 a.u.
2'F-ANA at 1 2 3 4 5 6 8 9 14 15: 48.5 a.u.
2'F-ANA at 1 2 4 5 7 10 11 13 14: 51 a.u.
2'F-ANA at 1 9 10 12 14 15: 47.3 a.u.
2'F-ANA at 2 7 8 10 12: 209 a.u.
